Measurements of several laboratories.
Parts stem from different laboratories: compare values within a part only.

Study 1
Target: Ras GTPase-activating protein-binding protein 1, full length (G3BP1, Homo sapiens, UniProt Q13283)
Sequence of UniProt Q13283 (whole entry, looked up): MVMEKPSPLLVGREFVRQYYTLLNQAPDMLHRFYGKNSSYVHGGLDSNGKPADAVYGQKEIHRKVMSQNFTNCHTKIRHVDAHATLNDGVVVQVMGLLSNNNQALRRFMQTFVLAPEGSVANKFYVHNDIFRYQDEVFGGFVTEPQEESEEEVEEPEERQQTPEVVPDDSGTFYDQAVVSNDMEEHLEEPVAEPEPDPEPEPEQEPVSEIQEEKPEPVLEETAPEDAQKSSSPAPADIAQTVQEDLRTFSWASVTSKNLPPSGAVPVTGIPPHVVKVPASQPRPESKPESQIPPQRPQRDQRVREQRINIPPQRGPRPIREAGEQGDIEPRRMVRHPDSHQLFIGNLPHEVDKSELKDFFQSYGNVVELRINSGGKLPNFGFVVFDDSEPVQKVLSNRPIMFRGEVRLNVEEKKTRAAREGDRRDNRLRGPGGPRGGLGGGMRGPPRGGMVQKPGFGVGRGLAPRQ
Method: RNA Bind-n-Seq
Form: RNA
Sample: in vitro
Tested at: 200 nM
Notes: whole 134-nt RNA, ends assumed
Together with: 150 mM KCl
Relative to: input library
Reading: higher = stronger binding
Shared flanks, not repeated: GGGAGUUCUACAGUCCGACGAUC … UGGAAUUCUCGGGUGUCAAGG
| Sequence | log2 enrichment |
| --- | --- |
| AAGUCCUGUGCUACACAUCGUAUGUACCGAAUCGGAAAAGGGGAAAAGGGAAAAGGAAAGUAUUAUGUUACGCCGUUCGGAUCUGCACUU | -0.925 |
| CCUCAAGUCCUGUGCUACACAUCGUAUGUACCGAAUCGGGAGGAGGGAGGGGAAAGUAUUAUGUUACGCCGUUCGGAUCUGCACUUCCAG | 1.17 |
| UAACUUUAGAGGAGGAUCUGAUGGAUAUGGCAGUGGACGUGGAUUUGGGGAUGGCAAUAAUGGGUAUGGAGGAGGACCUGGAGGUGGCAA | 0.24 |
| AGUCCUGUGCUACACAUCGUAUGUACCGAAUCGUGUGUGUGUGUGUGUGUGUGUGUGUAAAGUAUUAUGUUACGCCGUUCGGAUCUGCAC | 0.666 |
| CUCAAGUCCUGUGCUACACAUCGUAUGUACCGAAUCGGGGUGGGGUGGGUGGGAAAGUAUUAUGUUACGCCGUUCGGAUCUGCACUUCCA | 1.6 |
| CUCAAGUCCUGUGCUACACAUCGUAUGUACCGAAUCGGGAAGGGAAGGAAGGGAAAGUAUUAUGUUACGCCGUUCGGAUCUGCACUUCCA | 0.276 |
| CAAGUCCUGUGCUACACAUCGUAUGUACCGAAUCGGAAAGGGGAAAGGAAAGGGGAAAGUAUUAUGUUACGCCGUUCGGAUCUGCACUUC | -0.0572 |
| CAAGUCCUGUGCUACACAUCGUAUGUACCGAAUCGGGGUUGGGGUUGGGGUUGGGAAAGUAUUAUGUUACGCCGUUCGGAUCUGCACUUC | 0.904 |
| UGGCAGCGGCCAUGGACCGCUUCGUUUGGACCAGCGGCCUCCUGGAGAUCAACGAGACCCUGGUGAUCCAGCAGCGCGGGGUGCGAAUCU | -0.738 |
| UGGCCCUGGUGGCAUGCGGGGAGGAAGAGGUGGCCUCAUGGAUCGUGGUGGUCCCGGUGGAAUGUUCGGAGGUGGCCGUGGUGGAGACAG | 0.371 |
| UGGGAGGUGGAUUUUGUUUAUUUUUUUAGCUCAUUUCCAGGGGUGGGAAUUUUUGUUUAAUAUGUGUCAUGAAUAAAGUUGUUUUUGAAA | 0.299 |
| AGUCCUGUGCUACACAUCGUAUGUACCGAAUCGGAAAAGGGGAAAAGGGGAAAAGGGAAAGUAUUAUGUUACGCCGUUCGGAUCUGCACU | -0.137 |
| CCUGUGCUACACAUCGUAUGUACCGAAUCGGGUUUUUUUGGGAAAAAAAGGGUUUUUGGGAAAGUAUUAUGUUACGCCGUUCGGAUCUGC | -1.1 |
| AAGUCCUGUGCUACACAUCGUAUGUACCGAAUCGGGAAAAGGAAAAGGGAAAAGGGGAAAGUAUUAUGUUACGCCGUUCGGAUCUGCACU | -0.546 |

Study 2
Target: Histone acetyltransferase KAT6A, both winged helices, GST fusion (KAT6A, Homo sapiens, UniProt Q92794, residues 1-181)
Method: protein binding microarray
Form: double-stranded DNA, one strand shown
Sample: in vitro
Tested at: not given
Notes: 8-mer, flanks averaged, mean of 2 arrays, mostly near background
Relative to: not given
Reading: higher = stronger binding
Target sequence (chain): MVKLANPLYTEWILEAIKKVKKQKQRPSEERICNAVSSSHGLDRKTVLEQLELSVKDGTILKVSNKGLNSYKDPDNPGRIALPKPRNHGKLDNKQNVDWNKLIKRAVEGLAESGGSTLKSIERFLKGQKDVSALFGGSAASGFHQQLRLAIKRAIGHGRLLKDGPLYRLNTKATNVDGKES
| Sequence | E-score |
| --- | --- |
| AGCCGCAG | 0.15 |
| GGCCAGCC | -0.0783 |
| ATTCTGGC | -0.0296 |
| CCAGCGAC | -0.0688 |
| GCGACACA | 0.0437 |
| CGACATGA | 0.127 |
| CTCGTTAC | -0.224 |
| GGCGTCCC | 0.109 |
| ATCCTTGG | -0.0502 |
| ACCTTGCT | -0.282 |
| GTCGCCAC | 0.0278 |
| CGCACTCC | 0.108 |
| ATCCGCTG | 0.0738 |
| AATACAGC | -0.141 |
| ATTTTCAA | -0.179 |
| ACACCTTC | 0.0254 |
| AGAAAATC | -0.0684 |
| ACATTTTA | 0.104 |
| ACCTAAGA | -0.199 |
| GAGCGAAC | -0.0277 |
| CGTTGAGA | 0.0937 |
| GATCATCA | -0.096 |
| AACTAGCC | -0.137 |

Study 3
Target: RING finger protein unkempt homolog, zinc fingers 1-6, SBP tag (UNK, Homo sapiens, UniProt Q9C0B0, residues 30-357)
Sequence of UniProt Q9C0B0 (30-357, looked up): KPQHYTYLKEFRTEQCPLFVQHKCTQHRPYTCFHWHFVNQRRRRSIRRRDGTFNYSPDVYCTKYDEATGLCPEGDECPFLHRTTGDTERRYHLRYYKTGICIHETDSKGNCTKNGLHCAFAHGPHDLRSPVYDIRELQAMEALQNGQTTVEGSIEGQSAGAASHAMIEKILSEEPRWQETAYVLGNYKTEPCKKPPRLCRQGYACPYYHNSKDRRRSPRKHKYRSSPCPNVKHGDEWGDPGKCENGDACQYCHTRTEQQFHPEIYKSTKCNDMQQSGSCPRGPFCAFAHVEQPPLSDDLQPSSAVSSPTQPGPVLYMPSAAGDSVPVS
Method: RNA Bind-n-Seq
Form: RNA
Sample: in vitro
Tested at: 100 nM
Notes: RNA with constant flanks, vertebrate orthologous sites, ends assumed
Relative to: input RNA pool
Reading: higher = stronger binding
Shared flanks, not repeated: GGGAGUUCUACAGUCCGACGAUC … CAACAGAGGAUUGAGCAUCA
| Sequence | bound/input enrichment [ratio] |
| --- | --- |
| AAGUAUUUAUACUGGCCAAACAUUUUUUACUUAUUUUGUUCCCCCCCCCUUUUUUUUUGGUAGUUCUUGUUACCCACACCAUUUUAUGUCUCCUUCACUGAAGGGCUAGAGUUUUAAGUU | 0.902 |
| CUGUUGUUAAGCACUGUGUUCCAGACUGUGUCUGACUUGAGUGUGACCUAGGAGAUUUUAUUGUUUUAUUUUAAUGAAGCCCUGCUUGCCGCAGAGCAGCCGGGAGAGCAGCGUCCACCA | 0.896 |
| GUGUUUUGUACAGGGCAUUCUCUGUACUAGUUUGUCGUGGUUAUAAAACAAUUAGCAGAAUAGCCUACAUUUGUAUUUAUUUUCUAUUCCAUACUUCUGCCCACGUUUUCUCUCAAAAUC | 1.06 |
| AAGUAUCCCAGUUUACUGUGUUGAGUUGGCAUUGUACAGAAAUUAACAGCCAUAUUGGUCUAGAAACGUUAAACUUAAUUUUUUUCCAUUUGUACAGGGGUAACACACUGUAUUAAAUAU | 0.577 |
| UCGUCCUUCCUUUCUUUUUUUCUUUUUCUUUGUUUUCUUUCUUUCUUUCUUUUUUUUUGGUAGUUGUUCUUACCCACGCCAUUUUACGUCUCCUUCACUGAAGGGCUAGAGUUUUAACUU | 2.01 |
| GUCCCUGAGUGACAGCAUCCCAUCAGUGGCCGACUCCCACUGCAGCCAUUUCUCUGAAUUCAGCUGCUCCGAUAUGGAAAGCAUGAAAACAUCCUGCAGCCACGGCUCCAAUGACUACCA | 0.487 |
| UUUCACUGGCACCUCCCUUCCCGCUAUUCUGAAACUUCCCGCUAUUCUGAAAAAAAUUUAUUUGGAAUCUUGUUUUCUCAUUCAUGCUCUCUGCAUCAGUCAUGCUUAGCCCAUAAUUAA | 1.39 |
| CAGCAGAUUCUCUCAUAGGGAGAGCGGCACAUAUUGCUGUUCUUGAUUCAGAAAUAUUUUUAGAAAAAUUCUUUCUUGUUGCUGCCCUAAAAUAUUUUCAGUAGAGAAAAGCAUUAUAAG | 0.425 |
| AAAACUGCUGUGUGAAAUCUUUCCAGAGAAGUGUCACCGUAUAAAUAUUAUCAAAUAAUUUAGCUAGAUUCUUAAGUAUUAAAUUAUAUGUCAAGCAUUUAAAGUGAAUUUGAAAUGAAA | 0.737 |
| GGGCCGCUUCGACGUGAAGAUCGAGGUGAAGAGCUGAUCGCAAGCACAGAUCUUUCCCACUAGCCAUUUAAGAAGUUAAAGAUACAAAAACCUACUAGUCUUGAACAAACUGUCAUACGU | 1.54 |

Study 4
Target: RNA binding protein fox-1 homolog 2, RRM domain, GST-SBP tag (RBFOX2, Homo sapiens, UniProt O43251-10, residues 100-194)
Method: RNA Bind-n-Seq
Form: RNA
Sample: in vitro
Tested at: 365 nM
Notes: natural RNA segment, single round, ends assumed
Relative to: no-protein control
Reading: higher = stronger binding
Shared flanks, not repeated: GGGAGUUCUACAGUCCGACGAUC … UGGAAUUCUCGGGUGCCAA
Residues (chain): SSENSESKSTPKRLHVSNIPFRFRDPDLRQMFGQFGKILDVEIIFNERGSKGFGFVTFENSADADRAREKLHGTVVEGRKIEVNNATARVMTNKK
| Sequence | RBNS enrichment (R) |
| --- | --- |
| CUUGCGCCAGCUCAGAGGCCUGCCUCUAUGGUCCAGUGCAUCCCCGCUGUGCUCAGAUGCUGACGAGACUCCUUUGCUAGACUCCCCUAGUUAGGGCCUCUGCAGCUUAU | 0.278 |
| GCAGACGUCAGCUCAGCCCCGUCCUGGGCACAGACACUACACAAGGAGACGCUGGAAGUUAAGCAAUACUUUAAUACUGUAAUAUGUUUGUUUUCUUUUUCUUUCUUUUU | 0.362 |
| UGUCCAGACCAUUGUCUUCCAACCCCAGCUGGCCUCUAGAACACCCACUGGCCAGUCCUAGAGCUCCUGUCCCUACCCACUCUUUGCUACAAUAAAUGCUGAAUGAAUCC | 0.776 |
| CUUGUAUCCUUAAUCCUCAGUAACAGAAUUAGUCACACAGGGGGGAACUGCCAGCAGGGUUGCUUAGGAAAGGAAAUGGACCUUCUCUUCUCUUCUCUUCUUUGAGACAG | 0.442 |
| GGUCCAGGUGGGAGUACAAGGAAGGCUGCUUCUACACCCAUGAGCACAAAUACGUCUGUGUGGGACAGUCCACUGAACGUCGUCAUUUAGUCCAGCCCAUUGCAGGCAUU | 0.547 |
| GAAACAGCUGCCUUAGCUUCAGGAACCUUGAGUACUGUGGGCAAUUUAGAAAACGGAAAUGCAGUUUGAAAUUCUGAAUUUGCAAAGUACUGUAACAGUAAUUUAUAGUA | 1.1 |
| UUGAGAUAGCUGUAGUGUUUAUGCCAGAAGUCUCUGGGGACAUCUACUGCUUGUGUCUCUUUGGUGCAAUAAUUAAAAUGGAAGGAGGAGCUGAACUGGGAACCCUACAG | 0.493 |
| UUAUUACUAUUAGGUAUGUGAGCUUGGGCAAAUCGCUUAAUCUUUGAGUCUAGUUUUCUCUCAAAAUGAGAACAUUAGGCUAAAUGAUUUCCGAGUUUCCAGCUAGUCCU | 0.46 |
| ACCGUUCUUAUCACGAGAAAGCACUUUGUUUCCAGGGUGACGAGUCCCGCGGAGCAUGCACACCUUGUUUCCCUGUGACAUUCAUGUUCUCAUUUACAACUCUGAUUUUC | 5.13 |
| GCUGUGCUUAAAAGGUUGCAUACUGAGCCAAGUAUAAUUUUUGUAAUGUGUGAAAAAGAUGCCAAUUAUUGUUACACAUCAAGCAAUCAAUAAAGAAAACUUCCGUAGUU | 0.378 |
| GGCUGCAGAGACCUUGCGACCAUGUGUAGAUUGCGUGGACCCCGACAAAGGGAAGGCUGCUGUGUAGCUCUGUCCACUCUGAAUACCAAGUGUGUUGGGAAUUGCAUGCC | 1.62 |
| GCUCCUUGGAUGGUGAAUAGCUGCCCUUCUUGCUUCACCAUUCCAAGCCCAUUCCGGGAUGGGUGGCGAGCACAGGGUGCAUAAGCAAGCUGUUCUUCCCAGUCGGUAGG | 0.539 |

Study 5
Target: Sal-like protein 4, full length isoform B (SALL4, Homo sapiens, UniProt Q9UJQ4-2, residues 1-616)
Method: universal PBM
Form: double-stranded DNA, one strand shown
Sample: in vitro
Tested at: not given
Notes: 8-mer, flanks averaged, mean of replicates
Reading: higher = stronger binding
| Sequence | E-score |
| --- | --- |
| GGATCCCC | -0.38 |
| GCGCCCGC | -0.297 |
| CGTGTGCC | -0.277 |
| CAGTGCGG | -0.333 |
| ACAAATGC | 0.192 |
| CACAATGG | 0.0468 |
| GGACGATA | 0.0157 |
| ACGGATGG | -0.0839 |
| CGACTCCC | -0.0995 |
| ACTAATCG | 0.0193 |
| ACGGGTAT | 0.111 |
| GCAGCGTA | -0.0915 |
| ACTTAAGA | 0.176 |
| GAGACGTA | 0.00647 |
| AATTGATC | 0.0558 |
| CTTGAGTA | 0 |
| GCACTGCA | -0.206 |
| CACGCTCC | -0.288 |
| ACAAACTA | 0.164 |
| ATTCGCTG | -0.0482 |
| CTCTGCGC | -0.348 |

A few entries again (study 5):
| Sequence | E-score |
| --- | --- |
| CACAATGG | 0.0468 |
| GGACGATA | 0.0157 |
| ACGGATGG | -0.0839 |
| CGACTCCC | -0.0995 |
| ACTAATCG | 0.0193 |
| ACGGGTAT | 0.111 |
| GCAGCGTA | -0.0915 |
| ACTTAAGA | 0.176 |
| GAGACGTA | 0.00647 |
| AATTGATC | 0.0558 |
| CTTGAGTA | 0 |
| GCACTGCA | -0.206 |
| CACGCTCC | -0.288 |
